Results of several laboratories.
Lines come from different studies, so protocols differ. Several values in a cell are separate wells, animals, samples, runs or records. Numbers after ± are the reported error.
IDE: Insulin-degrading enzyme (IDE, Homo sapiens, UniProt P14735)

Compound | tested on | assay | system | setting | how to read | measurement | result
COc1ccc(N/N=C/c2ccc(-c3cccc(/C=N/Nc4ccc(OC)cc4)c3)cc2)cc1 | BEAS-2B | – | – | 15.5 µg/mL | – | cytotoxicity | not toxic
CCCS(=O)(=O)Nc1ccc(F)c(C(=O)c2c[nH]c3ncc(Cl)cc23)c1F | MC3T3-E1 | – | – | 100 µM | baseline: control | cell proliferation | 83.2%
Cc1ccccc1-c1ccc([C@@H]2[C@@H](CO)N3C(=O)CCCCCCN(S(=O)(=O)c4ccccc4C(F)(F)F)C[C@@H]23)cc1 | IDE | enzyme activity, inhibitor, fluorescence kinetic | – | together with: Mca-RPPGFSAFK(Dnp)-OH substrate | – | EC50 | 0.06 µM
CCCC(=O)OCSc1ccccc1C(=O)NCCn1ccc(=O)c2cc(OC)ccc21 | PHA-P-stimulated PBMC pooled | cytotoxicity, XTT | – | 7 days | – | TC50 | > 100 µM
Nc1c(CC(=O)O)cccc1C(=O)c1ccc(Br)cc1 | THLE-2 transduced with Ad-UGT1A4 | cytotoxicity | – | 48 h | – | IC50 | 220 ± 20 µM
Cc1ccc(-c2nn(-c3ccccc3)cc2C=Nc2c(N)nc(S)nc2O)cc1 | CCRF-CEM | cytotoxicity, differential nuclear staining | – | 48 h | – | CC50 | 17 ± 0.79 µM
CC(=O)Nc1cccc(-n2c(=O)n(C3CC3)c(=O)c3c(Nc4ccc(I)cc4F)n(C)c(=O)c(C)c32)c1 | COLO 205 | resazurin | – | 50.00 nM, 72 h, unit not given | baseline: DMSO | viability | 0.0867 and 0.0603
Fc1ccc(N/N=C/c2ccc(-c3cccc(/C=N/Nc4ccc(F)cc4F)c3)cc2)c(F)c1 | BEAS-2B | – | – | 15.5 µg/mL | – | cytotoxicity | not toxic
CCCC(CCC)NC(=O)c1ccc2c(c1)OCO2 | CHO-WBL | – | – | 0.021 mg/mL, 3 h, with rat liver S9 | – | cells with aberrations | 0.5%
COc1cccc2cc[nH]c12 | uninfected HCT-8 | cytotoxicity, Hoechst nuclei count | – | – | – | EC50 | 1390 µM
C=C(C)C(CC=C(C)C)Cc1c(O)cc(OC)c2c1O[C@H](c1ccc(O)cc1O)CC2=O (single isomer, unassigned; (-)) | COLO 205 | cytotoxicity, MTT | – | 48 h | – | IC50 | 34.2 µM
O=c1c(O)c(-c2ccc(O)cc2O)oc2cc(O)cc(O)c12 | BEAS-2B | enzyme activity, inducer, fluorogenic substrate imaging | – | 10 µM, 24 h | baseline: control | CYP1A1 induction | 1.52 fold
Cc1ccc2cc[nH]c2c1 | uninfected HCT-8 | cytotoxicity, Hoechst nuclei count | – | – | – | EC50 | 1140 µM
O=C(CCCN1C(=O)c2cccc3cccc(c23)C1=O)NO | HBL-1 | – | – | 1 µM, 120 h | – | viability | 88.8%
CCc1ccc(-c2nc(CSCC(=O)NCCc3ccccc3)c(C)o2)cc1 | PH5CH8 hepatocytes | high-content cell count | – | 72 h | – | CC50 | > 10 µM
O=c1ncn2nc(Sc3ccc(F)cc3F)ccc2c1-c1c(Cl)cccc1Cl | iCell cardiomyocytes hiPSC-derived | impedance | – | concentration not given, 24 h | baseline: vehicle | cell index | 103%
C[n+]1cc(NC(=O)c2ccc3ccc4ccc(C(=O)Nc5cc6ccccc6[n+](C)c5)nc4c3n2)cc2ccccc21 | COLO 205 | cytotoxicity, resazurin | – | 5 days | – | CC50 | 21 ± 2 µM
C[C@H]1[C@H](OC(=O)CCC(=O)O)O[C@@H]2O[C@@]3(C)CC[C@H]4[C@H](C)CC[C@@H]1[C@@]24OO3 | MV4-11 cells | CellTox Green | – | 24 h | – | lowest cytotoxic concentration | 1 µM
CC(C)=CCc1c(O)ccc(C(=O)[C@@H]2[C@@H](c3c(O)cc(O)c4c(=O)c(CC=C(C)C)c(-c5ccc(O)cc5O)oc34)C=C(C)C[C@H]2c2ccc(O)cc2O)c1O | BEAS-2B | fluorogenic substrate | – | 10 µM, 24 h | baseline: control | CYP1A1 induction | 1.05 fold
COc1ccc2cc[nH]c2c1 | uninfected HCT-8 | cytotoxicity, Hoechst nuclei count | – | – | – | EC50 | 2300 µM
O=C(O)[C@H]1O[C@@H](Oc2cc3oc(-c4ccc(O)cc4)cc(=O)c3c(O)c2O)[C@H](O)[C@@H](O)[C@@H]1O | BEAS-2B | enzyme activity, inducer, fluorogenic substrate imaging | – | 10 µM, 24 h | baseline: control | CYP1A1 induction | 1.18 fold
Oc1cccc2cc[nH]c12 | uninfected HCT-8 | cytotoxicity, Hoechst nuclei count | – | – | – | EC50 | 2510 µM
CCN(CC)c1ccc2c(-c3ccccc3C(=O)O)c3ccc(=[N+](CC)CC)cc-3oc2c1 | PH5CH8 hepatocytes | high-content cell count | – | 72 h, oleate lipid loaded | – | CC50 | > 10 µM

Compound | tested on | assay | system | setting | how to read | measurement | result
CC(C)Oc1ccc2c(=O)c(-c3ccccc3)coc2c1 | BEAS-2B | enzyme activity, inducer, fluorogenic substrate imaging | – | 10 µM, 24 h | baseline: control | CYP1A1 induction | 1.14 fold
Nc1nc(O)c2ncn(COC(CO)CO)c2n1 | HEL or HeLa cells | cell viability | – | 3 (unit not given) | – | CC50 | > 100 µM
CCS(=O)(=O)Oc1ccc(C=NNC(=O)CSc2nc3ccc(Cl)cc3c(=O)n2-c2ccccc2)cc1 | BJ1 | MTT | – | 100 µM | – | cytotoxicity | 68.1 ± 4.48%
Cc1cccc2[nH]ccc12 | uninfected HCT-8 | cytotoxicity, Hoechst nuclei count | – | – | – | EC50 | 1910 µM
CC(=O)N1CCCCN2[C@H](CO)[C@@H](c3ccc(-c4cccc(C)c4)cc3)[C@@H]2C1 | IDE | enzyme activity, inhibitor, fluorogenic kinetic | – | together with: Mca-RPPGFSAFK(Dnp)-OH substrate | – | EC50 | 16.5 µM
CCCC(=O)OCSc1ccccc1C(=O)NCCn1cc(C(=O)NCc2cccc(C)n2)c(=O)c2cc3c(cc21)OCO3 | PHA-P-stimulated PBMC pooled | cytotoxicity, XTT | – | 7 days | – | TC50 | > 100 µM
CC(C)(c1ccc(O)cc1)c1ccc(O)cc1 | HepG2 spheroids, dissociated | annexin V-FITC/PI flow cytometry | – | 1 µM, 96 h | – | viable cells | 44.3 ± 4.53%
O=C(CCc1ccc(O)cc1)c1c(O)cc(O)cc1O | BEAS-2B | enzyme activity, inducer, fluorogenic substrate imaging | – | 10 µM, 24 h | baseline: control | CYP1A1 induction | 0.97 fold
CC(=O)Nc1ccc(O)cc1 | THLE-2 transduced with Ad-UGT1A4 | cytotoxicity | – | 48 h | – | IC50 | 2300 ± 250 µM
C[C@H]1O[C@@H](O[C@H]2[C@@H](O)C[C@H](O[C@H]3[C@@H](O)C[C@H](O[C@H]4CC[C@@]5(C)[C@H](CC[C@@H]6[C@@H]5C[C@@H](O)[C@]5(C)[C@@H](C7=CC(=O)OC7)CC[C@]65O)C4)O[C@@H]3C)O[C@@H]2C)C[C@H](O)[C@@H]1O | PH5CH8 hepatocytes | high-content cell count | – | 72 h, oleate lipid loaded | – | CC50 | 0.052 µM
CCCCCCCC[N+](CCCCCCCC)(CCCCCCCC)CCCCCCCC.[Br-] | hTERT-RPTEC parental | – | – | concentration not given, 96-well plate | – | LDH release | 73.3 mU/mL and 67.8 mU/mL and 75.5 mU/mL
COc1cc2ncnc(Nc3ccc(Oc4ccccc4)c(C)c3C)c2cc1OC.Cl | NCI-H2087 (BRAF L597V) | resazurin | – | 1 µM, 72 h, unit not given, together with: trametinib 1 µM | baseline: DMSO | viability | 0.803 and 1.08
CCCC(C(=O)O)c1c(C)nc2ccc(Cl)cc2c1-c1ccccc1 (stereo not drawn) | MT-4 | – | – | – | – | CC50 | 42.2 ± 9.44 µM
CCCC(=O)OCSc1ccccc1C(=O)NCCn1ccc(=O)c2cc3c(cc21)OCO3 | PHA-P-stimulated PBMC pooled | cytotoxicity, XTT | – | 7 days | – | TC50 | > 100 µM
CC(=O)Nc1ccc(NC(=S)NC(=O)c2ccc(C(C)(C)C)cc2)cc1 | HBL-1 | – | – | 1 µM, 120 h | – | viability | 70.9%
Cc1cc(C(=O)NC(C)(C)COc2cccc3c2C(N)=NS(=O)(=O)N3)cc(C)n1 | human peripheral blood lymphocytes | CBPI, micronucleus test | – | 2 µg/mL, 4 h, with rat liver S9 | baseline: vehicle | cytotoxicity | 13%
O=c1c(O)c(-c2ccccc2)oc2cc(O)cc(O)c12 | BEAS-2B | enzyme activity, inducer, fluorogenic substrate imaging | – | 10 µM, 24 h | baseline: control | CYP1A1 induction | 1.2 fold
CSc1ccc(OCc2ncc([N+](=O)[O-])n2C)cc1 | LMH chicken hepatoma | – | – | – | – | CC50 | 243 µM
COc1cc2c(=O)c(-c3ccc(O)cc3)coc2cc1O[C@@H]1O[C@H](CO)[C@@H](O)[C@H](O)[C@H]1O | BEAS-2B | fluorogenic substrate | – | 10 µM, 24 h | baseline: control | CYP1A1 induction | 1.34 fold
CCn1c2ccccc2c2cc(-n3nncc3-c3ccccc3)ccc21 | MDA-MB-231 | cell detachment | detached cell population | concentration not given, 24 h | – | viable cells | 30 to 50%
O=c1c(-c2ccccc2)coc2ccccc12 | BEAS-2B | enzyme activity, inducer, fluorogenic substrate imaging | – | 10 µM, 24 h | baseline: control | CYP1A1 induction | 0.78 fold
Oc1ccc2cc[nH]c2c1 | uninfected HCT-8 | cytotoxicity, Hoechst nuclei count | – | – | – | EC50 | > 8000 µM
